Experimental data pooled from the literature.
Compare with care: the assays were run in different laboratories. Several values in a cell are separate wells, animals, samples, runs or records. In brackets after ≈: the same amount, converted by molar mass.
Organism: Staphylococcus aureus

SMILES | test | test system | setting | how to read | endpoint | result
OB(O)c1csc2ccccc12 |  | USA300 wild type | 50 µM | baseline: untreated | growth relative to untreated | 63.8% and 46.2% and 53.2% and 80.9% and 71.1%
Cc1c2c(nn1C)CSCc1cc(n(C)n1)CSc1cc(c3ccccc3c1)OCCCc1c(C(=O)O)n(C)c3c-2c(Cl)ccc13 | label-free proteomics, item: katA | SA113 | concentration not given | baseline: untreated | protein level fold change | 5.78
CC(C)C[C@H](NC(=O)CNC(=O)CNC(=O)CNC(=O)[C@H](Cc1ccc(O)cc1)NC(=O)[C@H](CC(C)C)NC(=O)[C@@H](NC(=O)CNC(=O)[C@H](Cc1ccc(O)cc1)NC(=O)[C@H](CCCCN)NC(=O)[C@H](CC(N)=O)NC(=O)[C@@H](NC(=O)[C@H](CCCCN)NC(=O)[C@H](Cc1c[nH]c2ccccc12)NC(=O)CN)[C@@H](C)O)[C@@H](C)O)C(=O)N[C@@H](CCCCN)C(=O)N[C@@H](CCCCN)C(=O)N[C@@H](CC(C)C)C(=O)N[C@@H](CC(C)C)C(=O)N[C@@H](CC(C)C)C(=O)N[C@@H](CC(C)C)C(=O)N[C@@H](CC(C)C)C(=O)N[C@@H](CCCCN)C(=O)N[C@@H](CCCCN)C(=O)N[C@@H](CC(C)C)C(=O)NCC(=O)O |  | USA300 | added: 1 mM MgCl2 |  | MIC | 32 µg/mL (≈ 11.2 µM)
C=CC[C@@H]1c2ccc(OC)c(OC)c2CN2CCc3cc4c(cc3[C@H]12)OCO4 |  | P2rx7 A312V/A312V mice, skin wound infection | dose not given, day 6 | baseline: day 0 | relative wound size | 0.77 and 0.73 and 0.98 and 0.75 and 0.82 and 1.04
CC[C@H](C)[C@H](NC(=O)[C@H](CCCCN)NC(=O)[C@H](CCCCN)NC(=O)[C@H](Cc1ccccc1)NC(=O)[C@@H](NC(=O)[C@@H](NC(=O)[C@H](CCCNC(=N)N)NC(=O)[C@H](Cc1ccccc1)NC(=O)[C@@H](NC(=O)[C@H](CCCCN)NC(=O)[C@H](CCCCN)NC(=O)[C@@H](N)CCSC)[C@@H](C)CC)C(C)C)[C@@H](C)CC)C(=O)N[C@@H](CC(C)C)C(=O)N[C@@H](CCCCN)C(=O)N[C@@H](CCCNC(=N)N)C(=O)N[C@@H](CC(C)C)C(=O)N[C@H](C(=O)N[C@H](C(=O)O)C(C)C)[C@@H](C)CC | broth microdilution | ATCC 25923 | compound pretreated with trypsin 1 h, added: trypsin 1 mg/mL |  | MIC | > 32 µg/mL
CN[C@H](CC(C)C)C(=O)N[C@H]1C(=O)N[C@@H](CC(N)=O)C(=O)N[C@H]2C(=O)N[C@H]3C(=O)N[C@H](C(=O)N[C@H](C(=O)O)c4cc(O)cc(O)c4-c4cc3ccc4O)[C@H](O)c3ccc(c(Cl)c3)Oc3cc2cc(c3O[C@@H]2O[C@H](CO)[C@@H](O)[C@H](O)[C@H]2O[C@H]2C[C@](C)(N)[C@H](O)[C@H](C)O2)Oc2ccc(cc2Cl)[C@H]1O |  | CAAS-2019-19 clinical blaZ-resistant isolate, 25% plasma |  |  | MBC | 8 µg/mL (≈ 5.52 µM)
CC[C@H](C)[C@H](NC(=O)[C@H](C)NC(=O)[C@H](CCCCN)NC(=O)[C@H](CC(C)C)NC(=O)[C@H](C)NC(=O)[C@@H](NC(=O)[C@H](Cc1c[nH]cn1)NC(=O)[C@H](CC(C)C)NC(=O)[C@@H](NC(=O)[C@@H](NC(=O)[C@H](CCCCN)NC(=O)[C@H](C)NC(=O)[C@H](C)NC(=O)[C@H](CO)NC(=O)[C@H](CCCCN)NC(=O)[C@H](Cc1ccccc1)NC(=O)[C@@H](NC(=O)[C@H](CCCCN)NC(=O)[C@H](CC(C)C)NC(=O)[C@H](Cc1ccccc1)NC(=O)[C@H](CO)NC(=O)[C@H](CCCCN)NC(=O)[C@H](Cc1c[nH]c2ccccc12)NC(=O)[C@H](CCCCN)NC(C)=O)[C@@H](C)O)[C@@H](C)O)C(C)C)[C@@H](C)O)C(=O)N[C@@H](CO)C(=O)N[C@@H](CO)C(N)=O |  | MRSA | 130 strains |  | MIC90 | 8 µg/mL (≈ 2.73 µM)
CO/N=C(\C(=O)N[C@@H]1C(=O)N2C(C(=O)O)=C(CSC(=O)c3ccco3)CS[C@H]12)c1csc(N)n1 |  | CAAS-2019-CAAS-2019-09 clinical blaZ-resistant isolate, PBS |  |  | MBC | 16 µg/mL
CC(=O)NC[C@H]1CN(c2ccc(N3CCOCC3)c(F)c2)C(=O)O1 |  | MRSA, 10 isolates | pH 7.0 |  | MIC50 | 1 µg/mL (≈ 2.96 µM)

Excerpt of the above:
SMILES | test | test system | setting | how to read | endpoint | result
CC(C)C[C@H](NC(=O)CNC(=O)CNC(=O)CNC(=O)[C@H](Cc1ccc(O)cc1)NC(=O)[C@H](CC(C)C)NC(=O)[C@@H](NC(=O)CNC(=O)[C@H](Cc1ccc(O)cc1)NC(=O)[C@H](CCCCN)NC(=O)[C@H](CC(N)=O)NC(=O)[C@@H](NC(=O)[C@H](CCCCN)NC(=O)[C@H](Cc1c[nH]c2ccccc12)NC(=O)CN)[C@@H](C)O)[C@@H](C)O)C(=O)N[C@@H](CCCCN)C(=O)N[C@@H](CCCCN)C(=O)N[C@@H](CC(C)C)C(=O)N[C@@H](CC(C)C)C(=O)N[C@@H](CC(C)C)C(=O)N[C@@H](CC(C)C)C(=O)N[C@@H](CC(C)C)C(=O)N[C@@H](CCCCN)C(=O)N[C@@H](CCCCN)C(=O)N[C@@H](CC(C)C)C(=O)NCC(=O)O |  | USA300 | added: 1 mM MgCl2 |  | MIC | 32 µg/mL (≈ 11.2 µM)
